# Results gathered from unrelated publications.
# Parts stem from different laboratories: compare values within a part only. Positions count from the first letter of the parent shown.
# Sequence of UniProt Q9XED8 (whole entry, looked up): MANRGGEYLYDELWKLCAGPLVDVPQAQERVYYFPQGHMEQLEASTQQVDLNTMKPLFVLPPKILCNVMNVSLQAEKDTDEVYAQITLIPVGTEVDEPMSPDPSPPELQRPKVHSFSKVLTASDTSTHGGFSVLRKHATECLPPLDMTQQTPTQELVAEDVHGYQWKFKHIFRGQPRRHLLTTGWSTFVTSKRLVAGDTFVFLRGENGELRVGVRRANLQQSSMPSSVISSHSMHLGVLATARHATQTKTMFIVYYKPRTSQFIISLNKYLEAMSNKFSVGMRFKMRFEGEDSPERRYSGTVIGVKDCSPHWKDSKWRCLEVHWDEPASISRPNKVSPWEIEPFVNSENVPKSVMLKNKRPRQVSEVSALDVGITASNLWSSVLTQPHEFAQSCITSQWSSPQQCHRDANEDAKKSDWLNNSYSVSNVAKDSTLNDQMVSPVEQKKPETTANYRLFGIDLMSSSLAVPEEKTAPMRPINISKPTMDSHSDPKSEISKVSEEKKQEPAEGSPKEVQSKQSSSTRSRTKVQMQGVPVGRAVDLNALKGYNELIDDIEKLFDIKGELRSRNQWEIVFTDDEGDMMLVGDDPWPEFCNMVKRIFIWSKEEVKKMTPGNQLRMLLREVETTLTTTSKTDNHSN
# Sequence of UniProt Q9ZTX9 (whole entry, looked up): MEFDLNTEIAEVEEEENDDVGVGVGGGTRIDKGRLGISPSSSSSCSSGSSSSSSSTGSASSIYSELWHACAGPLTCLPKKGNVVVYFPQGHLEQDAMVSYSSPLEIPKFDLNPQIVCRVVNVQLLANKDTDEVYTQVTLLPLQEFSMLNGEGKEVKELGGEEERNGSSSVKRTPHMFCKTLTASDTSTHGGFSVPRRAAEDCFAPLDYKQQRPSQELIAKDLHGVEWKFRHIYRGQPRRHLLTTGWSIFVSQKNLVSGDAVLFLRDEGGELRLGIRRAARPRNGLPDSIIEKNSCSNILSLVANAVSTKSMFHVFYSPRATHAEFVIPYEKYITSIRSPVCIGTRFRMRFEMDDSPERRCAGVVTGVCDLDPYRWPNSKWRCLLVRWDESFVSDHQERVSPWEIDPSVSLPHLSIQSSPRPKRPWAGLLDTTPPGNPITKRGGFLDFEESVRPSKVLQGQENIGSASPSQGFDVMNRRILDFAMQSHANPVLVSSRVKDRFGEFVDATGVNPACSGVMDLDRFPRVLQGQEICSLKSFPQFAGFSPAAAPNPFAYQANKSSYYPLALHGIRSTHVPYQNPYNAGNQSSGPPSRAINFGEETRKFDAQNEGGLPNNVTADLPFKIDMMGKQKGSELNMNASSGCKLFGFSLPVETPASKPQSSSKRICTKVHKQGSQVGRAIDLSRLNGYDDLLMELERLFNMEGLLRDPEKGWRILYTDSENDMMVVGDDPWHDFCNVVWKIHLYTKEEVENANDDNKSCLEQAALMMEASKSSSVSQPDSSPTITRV
# Sequence of UniProt P93022 (whole entry, looked up): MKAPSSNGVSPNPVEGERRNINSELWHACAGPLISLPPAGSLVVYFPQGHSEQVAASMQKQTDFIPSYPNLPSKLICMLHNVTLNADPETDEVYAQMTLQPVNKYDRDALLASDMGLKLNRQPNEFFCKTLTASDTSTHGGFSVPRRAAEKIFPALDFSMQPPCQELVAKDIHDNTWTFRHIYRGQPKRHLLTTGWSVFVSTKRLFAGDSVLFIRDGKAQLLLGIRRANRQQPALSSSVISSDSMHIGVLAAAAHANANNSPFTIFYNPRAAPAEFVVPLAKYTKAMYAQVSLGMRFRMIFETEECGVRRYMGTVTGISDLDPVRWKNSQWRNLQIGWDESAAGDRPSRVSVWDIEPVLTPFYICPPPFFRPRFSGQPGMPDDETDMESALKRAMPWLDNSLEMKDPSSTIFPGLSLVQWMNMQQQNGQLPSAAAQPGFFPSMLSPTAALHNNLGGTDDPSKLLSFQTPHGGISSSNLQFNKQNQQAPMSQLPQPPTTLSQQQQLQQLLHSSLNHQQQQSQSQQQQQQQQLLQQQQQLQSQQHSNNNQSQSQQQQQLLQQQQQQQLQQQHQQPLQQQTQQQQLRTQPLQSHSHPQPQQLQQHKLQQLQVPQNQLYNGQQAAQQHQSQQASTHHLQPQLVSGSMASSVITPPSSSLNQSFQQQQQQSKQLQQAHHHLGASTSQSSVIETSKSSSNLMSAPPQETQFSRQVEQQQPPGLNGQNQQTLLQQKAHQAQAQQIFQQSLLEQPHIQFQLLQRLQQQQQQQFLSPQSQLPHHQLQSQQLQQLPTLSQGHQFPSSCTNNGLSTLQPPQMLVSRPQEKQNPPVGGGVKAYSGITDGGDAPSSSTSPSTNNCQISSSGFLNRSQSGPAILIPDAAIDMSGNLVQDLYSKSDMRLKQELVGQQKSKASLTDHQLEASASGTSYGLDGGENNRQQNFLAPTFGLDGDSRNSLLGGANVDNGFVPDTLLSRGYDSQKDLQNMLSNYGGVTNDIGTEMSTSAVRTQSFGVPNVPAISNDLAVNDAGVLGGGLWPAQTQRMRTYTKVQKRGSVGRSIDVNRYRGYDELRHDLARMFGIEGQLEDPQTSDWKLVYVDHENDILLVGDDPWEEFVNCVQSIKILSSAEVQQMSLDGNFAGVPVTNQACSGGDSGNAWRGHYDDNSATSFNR
# Sequence of UniProt O24408 (whole entry, looked up): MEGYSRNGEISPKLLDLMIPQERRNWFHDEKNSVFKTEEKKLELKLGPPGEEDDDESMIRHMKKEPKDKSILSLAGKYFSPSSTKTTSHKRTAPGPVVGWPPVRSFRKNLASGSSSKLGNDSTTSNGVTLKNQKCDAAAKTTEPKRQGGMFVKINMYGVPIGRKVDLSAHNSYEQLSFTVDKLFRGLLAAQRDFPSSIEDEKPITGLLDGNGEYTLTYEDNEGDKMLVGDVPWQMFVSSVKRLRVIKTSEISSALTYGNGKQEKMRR
# Sequence of UniProt O24409 (whole entry, looked up): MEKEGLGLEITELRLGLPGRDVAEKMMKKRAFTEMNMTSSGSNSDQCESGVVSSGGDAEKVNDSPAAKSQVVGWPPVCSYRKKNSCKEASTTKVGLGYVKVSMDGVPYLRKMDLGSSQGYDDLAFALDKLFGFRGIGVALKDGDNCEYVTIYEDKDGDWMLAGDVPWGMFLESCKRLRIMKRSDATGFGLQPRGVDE
# Sequence of UniProt O23661 (whole entry, looked up): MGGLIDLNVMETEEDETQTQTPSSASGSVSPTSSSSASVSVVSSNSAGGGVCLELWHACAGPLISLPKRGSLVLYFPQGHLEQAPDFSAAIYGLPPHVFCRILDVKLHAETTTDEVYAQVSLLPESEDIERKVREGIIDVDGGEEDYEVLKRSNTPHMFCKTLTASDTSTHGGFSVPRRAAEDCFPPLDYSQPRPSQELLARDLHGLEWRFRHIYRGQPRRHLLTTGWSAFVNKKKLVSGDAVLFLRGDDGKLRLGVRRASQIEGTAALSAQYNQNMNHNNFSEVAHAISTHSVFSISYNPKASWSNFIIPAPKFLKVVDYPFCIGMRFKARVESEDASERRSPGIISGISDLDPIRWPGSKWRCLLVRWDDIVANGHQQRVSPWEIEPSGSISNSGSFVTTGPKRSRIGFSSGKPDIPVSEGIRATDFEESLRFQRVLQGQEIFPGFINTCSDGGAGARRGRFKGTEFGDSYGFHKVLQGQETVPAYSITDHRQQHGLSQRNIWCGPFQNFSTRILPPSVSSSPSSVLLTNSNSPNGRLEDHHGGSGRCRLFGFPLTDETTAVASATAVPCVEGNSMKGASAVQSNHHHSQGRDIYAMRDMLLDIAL

# Set 1
# Molecule: B1 (IAA12)
# Method: two-hybrid
# Baseline: out of 4 tests
# Reading: higher = firmer interaction
# B1: IAA12 (Arabidopsis thaliana, UniProt Q38830); chain MRGVSELEVGKSNLPAESELELGLGLSLGGGAWKERGRILTAKDFPSVGSKRSAESSSHQGASPPRSSQVVGWPPIGLHRMNSLVNNQAMKAARAEEGDGEKKVVKNDELKDVSMKVNPKVQGLGFVKVNMDGVGIGRKVDMRAHSSYENLAQTLEEMFFGMTGTTCREKVKPLRLLDGSSDFVLTYEDKEGDWMLVGDVPWRMFINSVKRLRIMGTSEASGLAPRRQEQKDRQRNNPV
partner,setting,positive tests
"ARF9 519-638 (Arabidopsis thaliana, UniProt Q9XED8)",weak activation fusion,2
"ARF4 660-788 (Arabidopsis thaliana, UniProt Q9ZTX9)",,0
"ARF7 1030-1164 (Arabidopsis thaliana, UniProt P93022)",,3
"ETT (Arabidopsis thaliana, UniProt O23661)",,0
"IAA19 (Arabidopsis thaliana, UniProt O24409)",,4
"IAA18 (Arabidopsis thaliana, UniProt O24408)",,3

# Set 2
# Target: Histone acetyltransferase KAT6A, both winged helices, GST fusion (KAT6A, Homo sapiens, UniProt Q92794, residues 1-181)
# Method: protein binding microarray
# Molecule type: double-stranded DNA, one strand shown
# Matrix: in vitro
# Tested at: not given
# Notes: 8-mer, flanks averaged, mean of 2 arrays, mostly near background
# Baseline: not given
# Reading: higher = stronger binding
# Residues (chain): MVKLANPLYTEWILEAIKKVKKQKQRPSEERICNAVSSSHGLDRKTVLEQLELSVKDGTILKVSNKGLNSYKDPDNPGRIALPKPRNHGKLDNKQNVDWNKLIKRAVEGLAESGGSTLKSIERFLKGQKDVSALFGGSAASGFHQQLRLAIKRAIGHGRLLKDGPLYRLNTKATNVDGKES
Oligonucleotide,E-score
CAAGGTGA,-0.206
ATCCGCGA,0.254
CTAACACC,-0.129
AGTGGGCC,-0.174
GAATTTCA,-0.151
CGGACTCC,0.0809
AAGTTAGT,-0.0364
CACTGATG,-0.215
AGGTTTAA,-0.0828
ATACTCGC,0.136
TGCACCCA,-0.0987
GACCATTA,-0.0553
AGCCCCAG,-0.141
GAGAATTA,-0.278
CGAGAGAC,-0.11
AGCTTCAA,-0.202
CTAACCCC,-0.144
GGGTGCGA,0.057
CAGAGCTC,-0.0507
AGCGACAC,-0.0907
AGGGTTCC,-0.0845
CGTCTCAA,0.00632
AAAGGACC,-0.0489
TGGCCACA,-0.215

# Set 3
# Target: RING finger protein unkempt homolog, zinc fingers 1-6, GST-SBP tag (UNK, Homo sapiens, UniProt Q9C0B0, residues 30-357)
# Method: RNA Bind-n-Seq
# Molecule type: RNA
# Matrix: in vitro
# Tested at: not given
# Notes: RNA with constant flanks, human-mouse chimeric sites, ends assumed
# Baseline: input RNA pool
# Reading: higher = stronger binding
# Shared flanks, not repeated: GGGAGUUCUACAGUCCGACGAUC … CAACAGAGGAUUGAGCAUCA
# Construct (chain): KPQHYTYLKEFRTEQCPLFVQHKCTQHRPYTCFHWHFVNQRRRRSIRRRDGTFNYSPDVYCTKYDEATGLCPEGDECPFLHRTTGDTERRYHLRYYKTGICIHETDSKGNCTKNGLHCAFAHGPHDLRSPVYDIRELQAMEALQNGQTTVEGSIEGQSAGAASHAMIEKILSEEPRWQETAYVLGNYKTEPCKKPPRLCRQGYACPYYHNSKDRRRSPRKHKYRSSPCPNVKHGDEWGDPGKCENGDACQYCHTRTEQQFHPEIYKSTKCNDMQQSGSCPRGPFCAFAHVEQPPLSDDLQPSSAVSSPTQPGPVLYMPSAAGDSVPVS
Oligonucleotide,bound/input enrichment [ratio]
GAUAAGAAAAGCUUGUUGGAGACCCGCUUGCAUGUCACUGGUAGAGACCUGAGGUGUCAAAUAGCUGAAACUUUCGGAUUUCAAGAAAAUUAUAUCAAAAUUGUCAUAAAUAAGAAACAG,0.649
AAAUCAUGUGUGUCAAAUAUUGAAAGUGCUUUAUCUACACUCCAGUAUGUAAGCAGUAUAGUAGUUUCUUUAGAGAAUAGGUCAGCCAUUGUAAAGUACAAUGCAAGCUUAGUCACUCCA,10.3
UCUUAACUUAUUCAUUUAACUUAUUUUUAUAGCUAGAGCAAUAUUGUUAGUCUUAGACAAUAGCUCACAUUUUUUGAGAAGCAUGCCCUCCCUGUCCAUUUGUCUUACAAUAACACUCAG,96
CGGAGCCCCUCCCUCUCACAGGCCCAAGAUAUAACCCACCAGUGCCUUUUGUCUUCCUGUCAGCUCUGUCAAUCACGCCUGUCCUCUCACGCCCACACUCCCCAGCCAAAGUGGGGAGGG,0.379
AGAAAGCAAAACUUGGAAAGAUUUAAGAAAGGAGACGUAAGAUUCUUGAUUUGCACAGAUGUAGCUGCUAGAGGGAUUGAUAUCCAUGGCGUUCCUUAUGUGAUCAACGUCACCCUGCCU,0.276
GAACCUGCUCUCUCUGAUGAAGAUGAGGAAGACAAUGAUGAUGUUGAACCCAUUUCUGAAUUUCGAUUUGUGCCCAGUGAUAAGUCAGCAUUGGAGGCAAUGUUCACAGCAAUGUGUGAG,0.211
UAAGUUAUUUUGUACAGCUUUGUAAAUUCUUAACAUUAAUUUGUAAACAUGUUUAUUUUGUUUGGGUAAUUUGGUUCAUUAAGUACAUAGCUAAGGUACAUCUUUCAUUUUUCAGUAAUU,0.514
CGGAGCCCUCCUCUCCCACAGGCCCAAGAUGUGACCCACCAGUGCCUUUUGUCUUCCUGUCAGCUCUGUCAAUCACGCCUGUCCUCUCACGCCCACACCAAGUGCCCCCACCCCUAAGGG,0.486
AGGAGGAGAUUAAAGGGUGAGAGUGGGGUGGAAGACUGUGUCAUGGCUCUGGAGACACUGUUCAGUGUCCUGCUUUCUCUGUGCAGACUGAUGGCCCCCUACACACCCUUUCUGACUGAG,0.0664
ACUCUUGACUCUUUCCAUCCUCUUCCUUUUCCUCUUGAUAUUCAAGGCCAUGAAUCCCAAAAUAACAGUCUUAGUGGCUAGCACCCACCCAAACUGAGAAUAAAUCCACCCCAGUGUCUC,0.471
CAGCCUCAGAGCCCAGACUUCCUGGAUAUUACCAACCCCAAAGCCGUAUUAGAAAAUGCAUUGAGAAACUUCGCCUGUCUGACGACUGGAGAUGUGAUUGCCAUCAACUACAAUGAGAAG,0.621

# Set 4
# Target: ABI1, truncated, D143A, DHFR fusion (Arabidopsis thaliana, UniProt P49597)
# Method: DHFR PCA, dose-response
# Matrix: yeast
# Notes: Hill fit, not affinity, not high confidence
# Added: (+)-ABA, dose series
# Reading: lower = more sensitive
# Starting sequence: PYL1, truncated, DHFR fusion (Arabidopsis thaliana, UniProt Q8VZS8); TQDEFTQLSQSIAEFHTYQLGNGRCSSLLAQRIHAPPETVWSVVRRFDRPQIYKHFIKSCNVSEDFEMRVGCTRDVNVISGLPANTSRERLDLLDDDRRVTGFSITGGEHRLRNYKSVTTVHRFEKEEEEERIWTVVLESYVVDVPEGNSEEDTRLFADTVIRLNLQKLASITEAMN
Change,ABA EC50 [µM]
L28E,799
L138D,29.6
Y115K,0.0619
Y115Q,0.0247
S117P,0.259
H110I,19.2
V44G,4.88
Y141S,0.228
S80V,651
S140M,226
R74V,0.0364
P83T,459
E89V,53.3
N149I,246
A84L,0.512
D75P,125
V142Y,28.8
V121N,9.45
L91S,1860

# Set 5
# Target: Sal-like protein 4, full length isoform A (SALL4, Homo sapiens, UniProt Q9UJQ4, residues 1-1053)
# Sequence of UniProt Q9UJQ4 (whole entry, looked up): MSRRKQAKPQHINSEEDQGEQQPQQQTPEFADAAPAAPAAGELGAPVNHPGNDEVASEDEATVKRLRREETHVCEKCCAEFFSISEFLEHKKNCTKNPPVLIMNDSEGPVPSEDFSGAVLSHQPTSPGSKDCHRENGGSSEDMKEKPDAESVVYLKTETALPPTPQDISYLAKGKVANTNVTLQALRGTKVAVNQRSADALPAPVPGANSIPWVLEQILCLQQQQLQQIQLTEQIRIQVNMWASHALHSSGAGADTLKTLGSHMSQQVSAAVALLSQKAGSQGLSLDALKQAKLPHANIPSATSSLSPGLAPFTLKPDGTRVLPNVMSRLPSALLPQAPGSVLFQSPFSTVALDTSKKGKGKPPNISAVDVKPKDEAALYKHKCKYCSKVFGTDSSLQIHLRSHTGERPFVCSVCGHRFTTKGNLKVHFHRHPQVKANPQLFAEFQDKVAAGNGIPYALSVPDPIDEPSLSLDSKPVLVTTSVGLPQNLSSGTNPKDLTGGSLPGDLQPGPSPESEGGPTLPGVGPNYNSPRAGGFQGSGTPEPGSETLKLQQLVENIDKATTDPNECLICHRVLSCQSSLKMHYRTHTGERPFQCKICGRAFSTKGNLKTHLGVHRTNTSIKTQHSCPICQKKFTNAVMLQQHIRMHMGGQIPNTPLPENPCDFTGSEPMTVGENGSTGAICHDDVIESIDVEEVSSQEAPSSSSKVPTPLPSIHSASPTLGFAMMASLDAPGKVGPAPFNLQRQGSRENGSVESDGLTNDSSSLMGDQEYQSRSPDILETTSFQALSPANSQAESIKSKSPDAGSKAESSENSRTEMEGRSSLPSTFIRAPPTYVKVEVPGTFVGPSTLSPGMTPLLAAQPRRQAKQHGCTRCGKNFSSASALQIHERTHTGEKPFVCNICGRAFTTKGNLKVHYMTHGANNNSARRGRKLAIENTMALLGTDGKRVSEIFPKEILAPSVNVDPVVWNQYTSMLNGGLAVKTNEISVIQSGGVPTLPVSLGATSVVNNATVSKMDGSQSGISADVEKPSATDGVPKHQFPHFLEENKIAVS
# Method: universal PBM
# Molecule type: double-stranded DNA, one strand shown
# Matrix: in vitro
# Tested at: 600 nM
# Notes: 8-mer, flanks averaged, mean of replicates
# Reading: higher = stronger binding
Oligonucleotide,E-score
CTGTGTAC,0.0779
GCTCACCA,-0.214
GGAGTATA,0.0978
AAAGATTA,0.3
GTCAAGAC,-0.153
GCGTACCA,-0.139
TAGAGTGA,0.0775
AATCGCAT,0.0591
GTTGTACA,0.193
AACCATCC,-0.0825
CCTTAGAA,-0.096
CTATCGAG,-0.098
ACCATAAT,0.368
CGAAGCCG,-0.309
TAGGCTGA,-0.0728
CGGTGGAG,-0.256
TATTACGA,0.342
GACGCGAC,-0.245
CAAGGGGG,-0.204
CACCGGTC,-0.36
CCCCTTAC,-0.146

# Set 6
# Target: CCNE2, cyclin fold, Cln2 fusion (human)
# Method: yeast growth competition, sequencing
# Matrix: yeast
# Notes: strong parent motif
# Baseline: not given
# Reading: higher = stronger binding
# Starting sequence: RBL1 docking peptide (human); GSAKRRLFGEDPP
Change,normalised enrichment score
A3C,4.44
G9L,4.85
E10A,3.21
D11E,4.71
L7V,0.555
F8D,0.34
P13V,4.49
L7N,0.594
F8N,-0.207
R6F,1.29
P13I,4.7
P12F,3.7
L7C,1.23
G9S,5.57

# Some of these lines once more (set 4):
Change,ABA EC50 [µM]
Y115K,0.0619
V44G,4.88
S117P,0.259
N149I,246
L138D,29.6
D75P,125
L91S,1860
S80V,651
A84L,0.512
H110I,19.2
V121N,9.45
R74V,0.0364
L28E,799
Y115Q,0.0247
Y141S,0.228
